{"data": "Measured values from different studies", "note": "Each numbered part is a random draw from the data of one study; scales do not carry over between parts. Positions count from the first letter of the parent shown."}
{"data": "Set 1", "target": "Ras GTPase-activating protein-binding protein 1, C-terminal RGG region (G3BP1, Homo sapiens, UniProt Q13283)", "technique": "RNA Bind-n-Seq", "form": "RNA", "sample": "in vitro", "tested at": "1 µM", "setting": "whole 134-nt RNA, ends assumed", "with": "150 mM KCl", "reference": "input library", "direction": "higher = stronger binding", "all sequences stand within": "GGGAGUUCUACAGUCCGACGAUC … UGGAAUUCUCGGGUGUCAAGG", "chain of UniProt Q13283 (whole entry, looked up)": "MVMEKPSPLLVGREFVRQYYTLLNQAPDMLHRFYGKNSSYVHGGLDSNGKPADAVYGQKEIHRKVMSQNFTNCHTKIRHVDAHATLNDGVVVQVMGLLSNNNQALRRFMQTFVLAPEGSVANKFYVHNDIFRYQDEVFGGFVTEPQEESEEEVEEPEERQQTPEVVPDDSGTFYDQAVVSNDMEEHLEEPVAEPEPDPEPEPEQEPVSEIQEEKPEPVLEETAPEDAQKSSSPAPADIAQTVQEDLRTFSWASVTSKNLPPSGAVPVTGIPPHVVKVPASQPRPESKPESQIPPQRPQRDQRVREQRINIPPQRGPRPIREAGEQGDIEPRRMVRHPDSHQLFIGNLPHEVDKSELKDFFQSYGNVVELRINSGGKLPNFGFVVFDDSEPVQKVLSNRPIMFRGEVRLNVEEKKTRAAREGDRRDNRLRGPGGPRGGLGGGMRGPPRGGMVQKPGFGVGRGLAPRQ"}
{"Strand": "AGUCCUGUGCUACACAUCGUAUGUACCGAAUCGGGAAAAAGGGAAAAAGGAAAAAGGGAAAGUAUUAUGUUACGCCGUUCGGAUCUGCAC", "log2 enrichment": -1.93}
{"Strand": "CCUCAAGUCCUGUGCUACACAUCGUAUGUACCGAAUCGGUGGUGGGGUGGGGAAAGUAUUAUGUUACGCCGUUCGGAUCUGCACUUCCAG", "log2 enrichment": -0.186}
{"Strand": "CCUGUGCUACACAUCGUAUGUACCGAAUCAAAGUGUGUGUGUGUGAAAUGUGUGUGUGAAAAAAGUAUUAUGUUACGCCGUUCGGAUCUG", "log2 enrichment": -0.258}
{"Strand": "UAACUUUAGAGGAGGAUCUGAUGGAUAUGGCAGUGGACGUGGAUUUGGGGAUGGCUAUAAUGGGUAUGGAGGAGAACCUGGAGGUGGCAA", "log2 enrichment": -1.02}
{"Strand": "AAGUCCUGUGCUACACAUCGUAUGUACCGAAUCGGAAAAAGGAAAAAAAGGUUUGGAAAGUAUUAUGUUACGCCGUUCGGAUCUGCACUU", "log2 enrichment": -2.44}
{"Strand": "UCUGAGCAAUUGAAUGCCCUAAACAAGGCUUACCAUGACCUUUGUGAUGGUUCUGCAAAUCAGCUUCAGCAGCUUCAGAGCCAGUUGGCU", "log2 enrichment": -2.46}
{"Strand": "AAGUCCUGUGCUACACAUCGUAUGUACCGAAUCGGGAAAAGGAAAAGGAAAAGGGGAAAGUAUUAUGUUACGCCGUUCGGAUCUGCACUU", "log2 enrichment": -1.67}
{"Strand": "UGGCCCUGCUGGCAUGCGGGGAGGAAGAGGUGGCCUCAUGGAUCGUGGUGGUCCCGGUGGAAUGUUCAGAGGUGGCCGUGGUGGAGACAG", "log2 enrichment": 2.1}
{"Strand": "AGUCCUGUGCUACACAUCGUAUGUACCGAAUCGGCCCCCGGCCCCCGGGCCCCCGGGGAAAGUAUUAUGUUACGCCGUUCGGAUCUGCAC", "log2 enrichment": -1.83}
{"data": "Set 2", "target": "RING finger protein unkempt homolog, zinc fingers 1-6, GST-SBP tag (UNK, Homo sapiens, UniProt Q9C0B0, residues 30-357)", "technique": "RNA Bind-n-Seq", "form": "RNA", "sample": "in vitro", "tested at": "not given", "setting": "RNA with constant flanks, ends assumed", "reference": "input RNA pool", "direction": "higher = stronger binding", "all sequences stand within": "GGGAGUUCUACAGUCCGACGAUC … CAACAGAGGAUUGAGCAUCA", "chain of UniProt Q9C0B0 (30-357, looked up)": "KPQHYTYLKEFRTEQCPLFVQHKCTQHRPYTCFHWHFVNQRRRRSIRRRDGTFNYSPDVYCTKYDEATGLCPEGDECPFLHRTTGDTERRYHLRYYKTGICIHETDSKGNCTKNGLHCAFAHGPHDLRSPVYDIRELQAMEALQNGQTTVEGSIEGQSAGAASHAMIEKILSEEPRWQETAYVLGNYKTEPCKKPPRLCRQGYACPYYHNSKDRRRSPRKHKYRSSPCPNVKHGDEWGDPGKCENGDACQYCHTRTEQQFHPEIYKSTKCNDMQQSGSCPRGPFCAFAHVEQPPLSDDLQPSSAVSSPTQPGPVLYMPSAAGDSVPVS"}
{"Strand": "CCAGUACCUCUCAAACGAUCUUUAGAUAGUUAACUUCUACUACUAUUUAACGUUAUCUUUCCGCACUCAUAGAACAAACCAAGAUAUGGAAGAAGACAUAUUCAAAAGGUGGGCUUGUCU", "bound/input enrichment": "0.969 ratio"}
{"Strand": "GAAGCUUUACAUGAGUUACUCAGUUUUGCUUGAAGCAGUUUAAUACCAUCUAUCAUAAAAGCCGCUACAACGUGUCGUGAGUGGAUUCAUUACAAAUGAGAGAUAUACCAUUUCUCUCUG", "bound/input enrichment": "0.189 ratio"}
{"Strand": "CCAUGUUUAUUAGCUGGAGGUUUAUUAACAUAUAAAUCUCCUGCUACCUCACCCAUCCGCCGUAAUUCUCACAGGUCACUGGAUGGUUUAAGCAGAACUCAGGGUGAAAGUAUAUCAGAA", "bound/input enrichment": "0.109 ratio"}
{"Strand": "GAGAAGACAGGGCACAGUGGUACGCUGGAUCCCAAGGUGACUGGUUGUUUAAUCGUGUGCACCGAACGAGCCACUCGCUUGGUGAAGUCACAACAGAGUGCAGGCAAAGAGUAUGUGGGG", "bound/input enrichment": "0.204 ratio"}
{"Strand": "UAUGGCUUAAAAUGCUUUUGGAGUUUAUUUCUCAAAAUUAAAAUCUGGUCACAUGAGCUUCCGUUUGUUUUCUGGUUUAAAAAAUAAAAAGGUUUCUCUUAACAGUAUUUCCAGUGACAA", "bound/input enrichment": "0.253 ratio"}
{"Strand": "CCUUCUAAUUUUGGAGAUUUUUCUCAGAAUAUCUCUACACCCAGUGAACAGCAGCAACCCUCCGCCCAGAAUUCUUCAGGAAAAACAGAAUAUAUGGCUUUUCCAAAACCUUUUGAAAGC", "bound/input enrichment": "0.411 ratio"}
{"data": "Set 3", "target": "CCND2, cyclin fold, Cln2 fusion (human)", "technique": "yeast growth competition, sequencing", "sample": "yeast", "setting": "weak parent motif", "reference": "not given", "direction": "higher = stronger binding", "parent": "MICAL3 docking peptide (human); LQLRRQLSFSEDS"}
{"Variant": "R4W", "normalised enrichment score": 0.163}
{"Variant": "S10P", "normalised enrichment score": 0.0668}
{"Variant": "S10C", "normalised enrichment score": 0.35}
{"Variant": "R4H", "normalised enrichment score": 0.0588}
{"Variant": "R4G", "normalised enrichment score": -0.063}
{"Variant": "F9M", "normalised enrichment score": -0.149}
{"Variant": "L3F", "normalised enrichment score": 0.333}
{"Variant": "Q6L", "normalised enrichment score": -0.0599}
{"Variant": "R4K", "normalised enrichment score": 0.194}
{"Variant": "R5Y", "normalised enrichment score": 0.195}
{"Variant": "L3Q", "normalised enrichment score": 0.0997}
{"Variant": "R5H", "normalised enrichment score": -0.0762}
{"Variant": "R4E", "normalised enrichment score": -0.489}
{"Variant": "Q6G", "normalised enrichment score": 0.098}
{"Variant": "L7T", "normalised enrichment score": 0.217}
{"Variant": "S10I", "normalised enrichment score": 0.241}
{"Variant": "F9N", "normalised enrichment score": -0.0472}
{"Variant": "D12S", "normalised enrichment score": -0.145}
{"Variant": "Q2L", "normalised enrichment score": 0.025}
{"Variant": "S10F", "normalised enrichment score": 0.171}
{"Variant": "Q6N", "normalised enrichment score": 0.0235}
{"Variant": "S10N", "normalised enrichment score": 0.296}
{"Variant": "E11W", "normalised enrichment score": -0.17}
{"Variant": "E11H", "normalised enrichment score": -0.11}
{"Variant": "Q2M", "normalised enrichment score": 0.312}
{"data": "Set 4", "target": "ABI1, truncated, D143A, DHFR fusion (Arabidopsis thaliana)", "technique": "DHFR PCA, deep sequencing", "sample": "yeast", "setting": "methotrexate growth selection, single substitutions", "with": "(+)-ABA 200 µM", "reference": "wild-type fitted maximum", "direction": "higher = stronger binding", "parent": "PYL1, truncated, DHFR fusion (Arabidopsis thaliana); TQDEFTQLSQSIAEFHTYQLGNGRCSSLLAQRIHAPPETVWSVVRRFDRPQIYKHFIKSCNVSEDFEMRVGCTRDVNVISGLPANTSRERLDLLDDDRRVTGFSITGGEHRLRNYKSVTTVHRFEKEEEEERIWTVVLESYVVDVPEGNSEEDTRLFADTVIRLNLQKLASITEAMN; partner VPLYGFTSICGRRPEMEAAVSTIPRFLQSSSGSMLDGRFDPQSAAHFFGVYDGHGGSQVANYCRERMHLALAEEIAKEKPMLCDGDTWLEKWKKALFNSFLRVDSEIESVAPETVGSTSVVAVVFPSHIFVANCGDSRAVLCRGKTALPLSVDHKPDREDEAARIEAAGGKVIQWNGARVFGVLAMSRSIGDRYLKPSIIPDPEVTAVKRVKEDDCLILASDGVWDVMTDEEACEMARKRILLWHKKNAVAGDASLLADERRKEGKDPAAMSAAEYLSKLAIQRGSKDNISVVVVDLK"}
{"Variant": "T6G", "relative binding score [%]": 97.4}
{"Variant": "I57E", "relative binding score [%]": -3.43}
{"Variant": "I79A", "relative binding score [%]": 100}
{"Variant": "D95H", "relative binding score [%]": 73.2}
{"Variant": "N114W", "relative binding score [%]": 8.96}
{"Variant": "E151C", "relative binding score [%]": 92.1}
{"Variant": "V44G", "relative binding score [%]": -4.26}
{"Variant": "H110A", "relative binding score [%]": 16.4}
{"Variant": "D65L", "relative binding score [%]": 90.7}
{"Variant": "V121L", "relative binding score [%]": 96}
{"Variant": "S27N", "relative binding score [%]": 101}
{"Variant": "D96L", "relative binding score [%]": 38.9}
{"Variant": "F5E", "relative binding score [%]": 87}
{"Variant": "S104D", "relative binding score [%]": 10.6}
{"data": "Set 5", "target": "Sal-like protein 4, full length isoform B (SALL4, Homo sapiens, UniProt Q9UJQ4-2, residues 1-616)", "technique": "universal PBM", "form": "double-stranded DNA, one strand shown", "sample": "in vitro", "tested at": "not given", "setting": "8-mer, flanks averaged, mean of replicates", "direction": "higher = stronger binding", "Residues (chain)": "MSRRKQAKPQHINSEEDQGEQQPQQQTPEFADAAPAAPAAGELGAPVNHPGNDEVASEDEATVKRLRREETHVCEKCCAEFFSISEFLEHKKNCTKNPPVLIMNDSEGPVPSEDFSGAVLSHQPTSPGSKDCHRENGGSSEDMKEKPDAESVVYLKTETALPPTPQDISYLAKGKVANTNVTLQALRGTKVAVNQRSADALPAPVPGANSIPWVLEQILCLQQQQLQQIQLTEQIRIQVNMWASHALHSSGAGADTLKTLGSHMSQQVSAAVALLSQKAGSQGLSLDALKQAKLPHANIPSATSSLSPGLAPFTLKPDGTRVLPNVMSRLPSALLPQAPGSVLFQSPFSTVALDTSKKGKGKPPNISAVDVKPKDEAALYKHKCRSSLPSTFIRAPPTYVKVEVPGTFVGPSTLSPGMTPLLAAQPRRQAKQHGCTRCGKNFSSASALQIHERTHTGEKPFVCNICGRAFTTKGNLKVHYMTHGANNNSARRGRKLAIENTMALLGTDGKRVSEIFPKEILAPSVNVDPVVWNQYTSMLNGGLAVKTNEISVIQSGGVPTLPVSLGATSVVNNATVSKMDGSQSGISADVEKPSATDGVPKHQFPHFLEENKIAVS"}
{"Strand": "AATTAAAT", "E-score": 0.324}
{"Strand": "CTGCAATA", "E-score": 0.313}
{"Strand": "ACCGTCGG", "E-score": -0.284}
{"Strand": "ACCTTGCA", "E-score": -0.0588}
{"Strand": "ATTTAGAA", "E-score": 0.199}
{"Strand": "CGGCTCAC", "E-score": -0.15}
{"Strand": "GCGTACCA", "E-score": -0.068}
{"Strand": "GGGCAATA", "E-score": 0.0692}
{"Strand": "AACGTCTC", "E-score": -0.0538}
{"Strand": "AACCAGTA", "E-score": 0.0155}
{"Strand": "AGAAGATA", "E-score": 0.239}
{"Strand": "AGCACAAG", "E-score": -0.0366}
{"Strand": "TATAGGCA", "E-score": 0.208}
{"Strand": "AATGGTAG", "E-score": 0.201}
{"Strand": "ATGTGCCC", "E-score": 0.0777}
{"Strand": "CAGTGGAG", "E-score": -0.0854}
{"Strand": "CCCCCAAG", "E-score": -0.126}
{"Strand": "ATCGAGTC", "E-score": 0.0627}
{"Strand": "GGTACTTA", "E-score": 0.0804}
{"Strand": "CTGCCGCA", "E-score": -0.17}
{"Strand": "AGCCCTAG", "E-score": -0.094}
{"Strand": "AGAACTAA", "E-score": 0.0807}
{"Strand": "ACTTAGTC", "E-score": -0.0692}
{"Strand": "AGTCGGCC", "E-score": -0.294}
{"Strand": "ATTACCCG", "E-score": 0.105}
{"note": "Repeated from above (set 5):"}
{"Strand": "AACGTCTC", "E-score": -0.0538}
{"Strand": "AACCAGTA", "E-score": 0.0155}
{"Strand": "AGAAGATA", "E-score": 0.239}
{"Strand": "AGCACAAG", "E-score": -0.0366}
{"Strand": "TATAGGCA", "E-score": 0.208}
{"Strand": "AATGGTAG", "E-score": 0.201}
